Published values gathered from unrelated publications.
Each line is one published result; not all experiments were run side by side. ± marks the error that the study gave.
CHRM5: Muscarinic acetylcholine receptor M5 (CHRM5, Homo sapiens, UniProt P08912)
UniProt P08912, sequence (whole entry, looked up): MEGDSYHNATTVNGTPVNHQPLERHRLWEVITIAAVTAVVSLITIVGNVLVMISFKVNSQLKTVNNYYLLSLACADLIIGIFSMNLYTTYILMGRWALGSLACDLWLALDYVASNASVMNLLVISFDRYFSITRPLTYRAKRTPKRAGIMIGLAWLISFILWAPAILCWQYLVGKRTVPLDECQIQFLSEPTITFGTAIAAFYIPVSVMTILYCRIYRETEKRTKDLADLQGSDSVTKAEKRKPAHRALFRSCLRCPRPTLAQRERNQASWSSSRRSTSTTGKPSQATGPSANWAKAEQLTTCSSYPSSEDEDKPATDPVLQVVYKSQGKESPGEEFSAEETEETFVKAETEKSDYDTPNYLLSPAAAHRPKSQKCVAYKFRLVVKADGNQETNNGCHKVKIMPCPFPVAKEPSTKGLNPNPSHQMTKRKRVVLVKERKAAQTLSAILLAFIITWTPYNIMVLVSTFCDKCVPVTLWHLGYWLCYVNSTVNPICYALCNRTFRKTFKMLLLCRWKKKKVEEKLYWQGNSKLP
TDP1: Tyrosyl-DNA phosphodiesterase 1 (TDP1, Homo sapiens, UniProt Q9NUW8)
UniProt Q9NUW8, sequence (whole entry, looked up): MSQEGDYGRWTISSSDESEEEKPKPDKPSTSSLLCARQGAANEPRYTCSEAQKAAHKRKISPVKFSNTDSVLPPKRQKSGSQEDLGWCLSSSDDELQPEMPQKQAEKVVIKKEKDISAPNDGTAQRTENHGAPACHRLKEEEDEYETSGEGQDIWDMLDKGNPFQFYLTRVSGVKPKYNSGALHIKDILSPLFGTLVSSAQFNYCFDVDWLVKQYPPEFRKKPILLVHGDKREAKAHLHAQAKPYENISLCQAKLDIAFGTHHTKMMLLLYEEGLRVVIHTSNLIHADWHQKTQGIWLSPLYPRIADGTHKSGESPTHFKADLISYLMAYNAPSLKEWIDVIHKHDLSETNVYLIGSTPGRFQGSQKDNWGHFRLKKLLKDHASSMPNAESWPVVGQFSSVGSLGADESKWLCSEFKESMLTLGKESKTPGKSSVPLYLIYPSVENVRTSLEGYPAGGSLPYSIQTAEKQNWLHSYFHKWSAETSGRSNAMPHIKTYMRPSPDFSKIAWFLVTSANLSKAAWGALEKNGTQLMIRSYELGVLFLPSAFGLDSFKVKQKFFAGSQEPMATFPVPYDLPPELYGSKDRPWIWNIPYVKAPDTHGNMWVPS
NTSR1: Neurotensin receptor type 1 (NTSR1, Homo sapiens, UniProt P30989)
UniProt P30989, sequence (whole entry, looked up): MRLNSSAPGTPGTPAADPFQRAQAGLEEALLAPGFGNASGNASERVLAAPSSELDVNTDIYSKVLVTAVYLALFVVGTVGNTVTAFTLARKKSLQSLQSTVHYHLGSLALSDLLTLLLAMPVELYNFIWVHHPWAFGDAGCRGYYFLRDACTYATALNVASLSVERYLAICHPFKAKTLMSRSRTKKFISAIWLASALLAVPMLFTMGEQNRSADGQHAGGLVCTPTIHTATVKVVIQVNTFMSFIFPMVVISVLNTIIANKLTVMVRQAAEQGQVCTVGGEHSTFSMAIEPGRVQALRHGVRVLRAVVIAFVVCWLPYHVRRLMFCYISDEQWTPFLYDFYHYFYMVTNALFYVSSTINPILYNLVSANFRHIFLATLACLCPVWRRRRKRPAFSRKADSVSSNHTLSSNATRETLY
UniProt O09047, sequence (whole entry, looked up): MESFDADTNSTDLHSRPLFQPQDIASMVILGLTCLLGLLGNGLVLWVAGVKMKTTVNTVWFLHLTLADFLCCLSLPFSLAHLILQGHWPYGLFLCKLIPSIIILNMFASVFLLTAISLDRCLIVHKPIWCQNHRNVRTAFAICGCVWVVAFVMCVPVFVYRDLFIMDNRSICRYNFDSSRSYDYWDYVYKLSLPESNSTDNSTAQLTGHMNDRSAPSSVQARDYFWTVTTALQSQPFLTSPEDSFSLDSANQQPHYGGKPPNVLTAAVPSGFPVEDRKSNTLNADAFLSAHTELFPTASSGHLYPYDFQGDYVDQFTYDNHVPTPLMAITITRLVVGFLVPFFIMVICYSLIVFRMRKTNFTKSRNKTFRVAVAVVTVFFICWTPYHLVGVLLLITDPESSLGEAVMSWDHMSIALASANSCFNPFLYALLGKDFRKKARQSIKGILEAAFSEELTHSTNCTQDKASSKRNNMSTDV
UniProt Q9NSD7, sequence (whole entry, unmodified, looked up): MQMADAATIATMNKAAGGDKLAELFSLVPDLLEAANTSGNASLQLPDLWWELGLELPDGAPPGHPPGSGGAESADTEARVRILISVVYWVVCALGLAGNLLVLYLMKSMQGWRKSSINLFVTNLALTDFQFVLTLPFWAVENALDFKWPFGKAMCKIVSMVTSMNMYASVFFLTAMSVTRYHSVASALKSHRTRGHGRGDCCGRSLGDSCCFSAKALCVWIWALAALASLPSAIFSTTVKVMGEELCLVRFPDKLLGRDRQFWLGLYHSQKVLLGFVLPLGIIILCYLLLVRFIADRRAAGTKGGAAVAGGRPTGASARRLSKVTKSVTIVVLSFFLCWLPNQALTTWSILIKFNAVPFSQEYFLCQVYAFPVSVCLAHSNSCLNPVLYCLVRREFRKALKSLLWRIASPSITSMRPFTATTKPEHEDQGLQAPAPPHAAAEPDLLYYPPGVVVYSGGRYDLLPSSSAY
UniProt Q969F8, sequence (whole entry, unmodified, looked up): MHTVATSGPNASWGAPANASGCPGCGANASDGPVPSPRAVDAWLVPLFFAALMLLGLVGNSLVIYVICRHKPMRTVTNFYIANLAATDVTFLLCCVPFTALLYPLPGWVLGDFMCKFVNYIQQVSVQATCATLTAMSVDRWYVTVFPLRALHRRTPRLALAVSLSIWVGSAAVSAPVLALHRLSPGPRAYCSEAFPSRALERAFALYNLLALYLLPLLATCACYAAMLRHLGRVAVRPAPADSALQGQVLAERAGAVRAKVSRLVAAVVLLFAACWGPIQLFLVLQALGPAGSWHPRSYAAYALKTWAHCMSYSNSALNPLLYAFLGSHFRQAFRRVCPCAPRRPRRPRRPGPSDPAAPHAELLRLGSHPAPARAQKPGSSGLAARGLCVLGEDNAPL
UniProt P20309, sequence (whole entry, looked up): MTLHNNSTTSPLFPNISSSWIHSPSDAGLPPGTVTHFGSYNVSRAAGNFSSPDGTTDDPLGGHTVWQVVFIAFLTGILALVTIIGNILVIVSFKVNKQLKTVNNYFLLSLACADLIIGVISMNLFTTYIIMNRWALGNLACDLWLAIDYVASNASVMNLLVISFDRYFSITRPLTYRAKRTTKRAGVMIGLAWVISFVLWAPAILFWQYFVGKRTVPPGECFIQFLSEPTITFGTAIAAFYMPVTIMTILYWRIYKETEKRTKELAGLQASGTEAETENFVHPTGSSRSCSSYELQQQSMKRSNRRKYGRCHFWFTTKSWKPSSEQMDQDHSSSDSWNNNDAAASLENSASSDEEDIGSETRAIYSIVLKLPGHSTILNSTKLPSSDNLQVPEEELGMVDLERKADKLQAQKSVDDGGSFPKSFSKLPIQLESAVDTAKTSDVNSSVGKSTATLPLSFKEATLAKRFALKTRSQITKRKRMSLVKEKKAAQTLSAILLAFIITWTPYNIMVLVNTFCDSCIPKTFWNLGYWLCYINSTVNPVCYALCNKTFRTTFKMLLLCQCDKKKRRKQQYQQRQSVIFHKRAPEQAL
UniProt P24530, sequence (whole entry, looked up): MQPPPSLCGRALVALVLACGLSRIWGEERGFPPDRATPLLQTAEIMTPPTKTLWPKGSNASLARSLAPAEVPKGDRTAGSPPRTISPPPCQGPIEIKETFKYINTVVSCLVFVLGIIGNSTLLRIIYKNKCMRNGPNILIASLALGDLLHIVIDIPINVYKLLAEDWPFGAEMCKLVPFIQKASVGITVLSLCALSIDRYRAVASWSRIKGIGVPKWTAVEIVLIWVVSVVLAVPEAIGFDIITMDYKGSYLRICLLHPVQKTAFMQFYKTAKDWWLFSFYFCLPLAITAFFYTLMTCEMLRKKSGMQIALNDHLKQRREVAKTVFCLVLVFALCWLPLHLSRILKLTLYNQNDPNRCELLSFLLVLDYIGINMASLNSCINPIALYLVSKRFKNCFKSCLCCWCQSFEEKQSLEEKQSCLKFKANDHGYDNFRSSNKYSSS

The Emax of `C=CCn1c(=O)c2ccccc2n2c(SCC(=O)NCc3ccc(NC(C)=O)cc3)nnc12` is reported as 108 ± 2% (CHRM5; receptor activation, agonist; concentration not given, 16 h).
The inhibition of `O=C(O)c1ccc(Nc2c(-c3ccc(CON=CC4=C(Cl)c5ccccc5CC4)cc3)nc3cc(-c4ccccc4)ccn23)cc1` (mixture of isomers) is reported as 34.7% (TDP1; enzyme activity, inhibitor; 100 µM, unpurified compound).
`CCCCCCOc1ccc(C(=O)OCCN2CC=CCC2)cc1` gave an Emax of 1.46 ± 0.07 fold (CHRM3 (Homo sapiens, UniProt P20309); membranes; 10 µM, 15 h, together with: carbachol; reference: control).
The Emax of `CC(C)C[C@H](NC(=O)[C@H](C)NC(=O)[C@H](CO)NC(=O)[C@@H]1CCCN1C(=O)[C@@H]1CCCN1C(=O)[C@H](CCC(N)=O)NC(=O)[C@H](CC(C)C)NC(=O)[C@@H](N)[C@@H](C)O)C(=O)N[C@@H](CCCNC(=N)N)C(=O)N[C@@H](CCCNC(=N)N)C(=O)N[C@@H](CCCNC(=N)N)C(=O)N[C@@H](Cc1c[nH]cn1)C(=O)N[C@@H](Cc1ccc(O)cc1)C(=O)N[C@@H](Cc1c[nH]cn1)C(=O)N[C@@H](Cc1c[nH]cn1)C(=O)N[C@@H](C)C(=O)N[C@@H](CC(C)C)C(=O)N1CCC[C@H]1C(=O)N1CCC[C@H]1C(=O)N[C@@H](CO)C(=O)N[C@@H](CCCNC(=N)N)C(=O)O` is reported as 61.2 ± 2.17% (C3a anaphylatoxin chemotactic receptor (C3ar1, Mus musculus, UniProt O09047); cAMP response, agonist, GloSensor; reference: TLQP-21).
`CCCCCCOc1ccc(C(=O)OCC[N+]2(C)CC=CCC2)cc1` (stereo not drawn) gave an Emax of 1.44 ± 0.06 fold (CHRM5; membranes; 10 µM, 15 h, together with: carbachol; reference: control).
For `CC[C@H](C)[C@@H]1NC(=O)[C@H](Cc2ccccc2)NC(=O)[C@H](CCC(=O)O)NC(=O)[C@H](CCCNC(=N)N)NC(=O)CNC(=O)[C@@H](NC(=O)[C@H](CC(C)C)NC(=O)[C@H](CCCNC(=N)N)NC(=O)[C@@H](NC(=O)CNC(=O)[C@H](Cc2ccc(O)cc2)NC(=O)[C@@H]2CCCN2C(=O)[C@H](C)NC(=O)[C@H](C)NC(=O)[C@@H](N)CCCNC(=N)N)C(C)C)CSSC[C@@H]2NC(=O)[C@@H](NC(=O)[C@H](CO)NC(=O)[C@H](CO)NC(=O)[C@H](CO)NC(=O)[C@H](CC(C)C)NC(=O)CNC(=O)[C@H](C)NC(=O)[C@H](CC(C)C)NC(=O)[C@@H](NC(=O)[C@@H](N)CC(=O)O)C(C)C)CSSC[C@H](NC(=O)CNC(=O)[C@H](Cc3c[nH]c4ccccc34)NC(=O)[C@H](CCCCN)NC2=O)C(=O)N[C@@H](CO)C(=O)N[C@@H](CCCCN)C(=O)N[C@@H](CO)C(=O)N[C@@H](CCC(=O)O)C(=O)N[C@@H]([C@@H](C)CC)C(=O)N[C@@H](CO)C(=O)N[C@@H](CO)C(=O)N[C@@H](CC(C)C)C(=O)N[C@H](C(=O)O)CSSC[C@@H](C(=O)NCC(=O)NCC(=O)N[C@@H](CO)C(=O)N[C@@H](CCCNC(=N)N)C(=O)N[C@@H](Cc2c[nH]c3ccccc23)C(=O)O)NC(=O)[C@H]([C@@H](C)O)NC(=O)[C@H](Cc2ccccc2)NC(=O)[C@H]([C@@H](C)CC)NC(=O)[C@H](C(C)C)NC(=O)[C@H](C)NC(=O)[C@H](CCCNC(=N)N)NC1=O`, the Emax was 66.7 ± 3.79% (RXFP3 (Homo sapiens, UniProt Q9NSD7, H268A); HEK-293T; reference: wild type).
`COc1ccccc1C1CCN(c2nc(C3(C(F)(F)F)CC3)nc3ccc(N(C)CCO)cc23)CC1` gave an Emax of 113% (NTSR1; β-arrestin recruitment, agonist; HEK-293T).
For `COc1ccc(C=NOCc2ccc3nc(-c4ccccc4)c(Nc4ccc(C(=O)O)cc4)n3c2)cc1Cn1cccn1` (mixture of isomers), the inhibition was 15.8% (TDP1; enzyme activity, inhibitor; 100 µM, unpurified compound).
For `CNC(=N)NCCC[C@H](NC(=O)[C@H](CC(C)C)NC(=O)NNC(=O)[C@H](Cc1ccccc1)NC(=O)[C@@H](NC(=O)[C@H](CC(N)=O)NC(=O)[C@@H]1C[C@@H](O)CN1C(=O)[C@@H](Cc1ccc(O)cc1)NC(C)=O)[C@@H](C)O)C(=O)N[C@@H](Cc1c[nH]c2ccccc12)C(N)=O`, the Emax was 73.1% (KiSS-1 receptor (KISS1R, Homo sapiens, UniProt Q969F8, Y313A); inositol phosphate, agonist; HEK293).
For `CCCCOc1ccc(C(=O)OCCN2CC=CCC2)cc1`, the Emax was 1.68 ± 0.07 fold (CHRM5; membranes; 1 µM, 15 h, together with: carbachol; reference: control).
For `COc1ccccc1C1CCN(c2nc(C3(F)CCCC3)nc3ccc(N(C)CCO)cc23)CC1`, the Emax was 106% (NTSR1; β-arrestin recruitment, agonist; HEK-293T).
The Emax of `CCCC[C@H](NC(=O)[C@H](CC(C)C)NC(=O)[C@H](CO)NC(=O)[C@H](CO)NC(=O)[C@H](C)NC(=O)[C@H](CO)NC(=O)[C@H](C)N)C(=O)N[C@@H](CC(=O)O)C(=O)N[C@@H](CCCCN)C(=O)N[C@@H](CCC(=O)O)C(=O)N[C@@H](C)C(=O)N[C@H](C(=O)N[C@@H](Cc1ccc(O)cc1)C(=O)N[C@@H](Cc1ccccc1)C(=O)N[C@@H](C)C(=O)N[C@@H](Cc1c[nH]cn1)C(=O)N[C@@H](CC(C)C)C(=O)N[C@@H](CC(=O)O)C(=O)N[C@H](C(=O)N[C@H](C(=O)N[C@@H](Cc1c[nH]c2ccccc12)C(=O)O)[C@@H](C)CC)[C@@H](C)CC)C(C)C` is reported as 80 ± 6% (EDNRB (Homo sapiens, UniProt P24530); agonist; HEK293; ETBR/ETAR ratio 1:0.5).

For quick reference, copied from above:
`CCCCCCOc1ccc(C(=O)OCCN2CC=CCC2)cc1` gave an Emax of 1.46 ± 0.07 fold (CHRM3 (Homo sapiens, UniProt P20309); membranes; 10 µM, 15 h, together with: carbachol; reference: control).
